Assay results of several laboratories.
Numbered parts are unrelated; each lists some results of a single study. Values joined by “and” are separate records of one study, mostly repeats; a detail may differ.
Sequence of UniProt P45983 (whole entry, looked up): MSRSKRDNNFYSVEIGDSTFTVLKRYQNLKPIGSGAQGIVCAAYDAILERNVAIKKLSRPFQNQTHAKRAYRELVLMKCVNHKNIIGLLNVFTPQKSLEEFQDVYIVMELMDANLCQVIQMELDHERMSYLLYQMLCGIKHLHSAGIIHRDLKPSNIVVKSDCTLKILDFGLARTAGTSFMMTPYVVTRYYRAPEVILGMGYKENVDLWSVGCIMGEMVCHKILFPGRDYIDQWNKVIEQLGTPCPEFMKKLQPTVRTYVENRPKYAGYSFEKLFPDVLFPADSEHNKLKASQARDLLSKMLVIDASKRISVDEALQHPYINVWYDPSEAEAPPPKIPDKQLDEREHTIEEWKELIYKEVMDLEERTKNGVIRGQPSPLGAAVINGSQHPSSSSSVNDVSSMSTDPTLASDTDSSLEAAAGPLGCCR
Sequence of UniProt Q8TDX7 (whole entry, looked up): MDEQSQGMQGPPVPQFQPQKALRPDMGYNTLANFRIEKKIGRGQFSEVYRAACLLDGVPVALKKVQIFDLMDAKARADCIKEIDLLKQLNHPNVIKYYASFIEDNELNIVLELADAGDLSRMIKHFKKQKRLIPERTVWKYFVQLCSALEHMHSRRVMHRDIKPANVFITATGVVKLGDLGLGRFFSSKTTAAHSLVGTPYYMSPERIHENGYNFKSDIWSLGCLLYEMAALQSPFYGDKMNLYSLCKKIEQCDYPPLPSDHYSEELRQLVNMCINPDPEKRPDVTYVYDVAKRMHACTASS
Sequence of UniProt Q9HCP0 (whole entry, looked up): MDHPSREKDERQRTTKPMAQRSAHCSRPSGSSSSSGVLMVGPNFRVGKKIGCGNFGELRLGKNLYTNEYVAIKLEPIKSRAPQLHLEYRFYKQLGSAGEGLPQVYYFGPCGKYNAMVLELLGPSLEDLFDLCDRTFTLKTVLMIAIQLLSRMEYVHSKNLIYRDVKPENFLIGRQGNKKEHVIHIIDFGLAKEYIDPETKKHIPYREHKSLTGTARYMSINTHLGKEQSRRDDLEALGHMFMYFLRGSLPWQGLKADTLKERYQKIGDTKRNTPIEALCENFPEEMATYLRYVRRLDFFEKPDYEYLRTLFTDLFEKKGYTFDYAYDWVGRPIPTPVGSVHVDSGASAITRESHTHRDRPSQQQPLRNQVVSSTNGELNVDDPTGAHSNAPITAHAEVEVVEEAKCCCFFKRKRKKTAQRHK
Sequence of UniProt P41145 (whole entry, looked up): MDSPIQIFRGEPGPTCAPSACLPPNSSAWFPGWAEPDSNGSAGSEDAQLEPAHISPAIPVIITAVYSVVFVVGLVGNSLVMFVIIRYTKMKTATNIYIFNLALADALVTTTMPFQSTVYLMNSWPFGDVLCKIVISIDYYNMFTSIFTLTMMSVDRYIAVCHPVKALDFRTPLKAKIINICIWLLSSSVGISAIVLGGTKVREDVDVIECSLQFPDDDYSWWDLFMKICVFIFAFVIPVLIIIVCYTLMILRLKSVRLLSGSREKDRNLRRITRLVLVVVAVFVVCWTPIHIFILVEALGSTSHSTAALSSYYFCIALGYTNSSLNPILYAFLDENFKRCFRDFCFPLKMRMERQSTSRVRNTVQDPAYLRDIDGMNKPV
Sequence of UniProt P41143 (whole entry, looked up): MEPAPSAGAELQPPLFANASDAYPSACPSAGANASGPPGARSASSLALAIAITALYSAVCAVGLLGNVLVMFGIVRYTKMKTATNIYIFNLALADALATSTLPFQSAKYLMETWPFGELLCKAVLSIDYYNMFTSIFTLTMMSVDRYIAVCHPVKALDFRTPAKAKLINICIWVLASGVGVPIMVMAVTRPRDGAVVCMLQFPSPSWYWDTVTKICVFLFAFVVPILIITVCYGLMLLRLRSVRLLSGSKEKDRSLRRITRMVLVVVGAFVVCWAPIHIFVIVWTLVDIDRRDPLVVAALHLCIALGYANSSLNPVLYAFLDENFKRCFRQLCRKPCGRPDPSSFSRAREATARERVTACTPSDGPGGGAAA
Sequence of UniProt P11229 (whole entry, looked up): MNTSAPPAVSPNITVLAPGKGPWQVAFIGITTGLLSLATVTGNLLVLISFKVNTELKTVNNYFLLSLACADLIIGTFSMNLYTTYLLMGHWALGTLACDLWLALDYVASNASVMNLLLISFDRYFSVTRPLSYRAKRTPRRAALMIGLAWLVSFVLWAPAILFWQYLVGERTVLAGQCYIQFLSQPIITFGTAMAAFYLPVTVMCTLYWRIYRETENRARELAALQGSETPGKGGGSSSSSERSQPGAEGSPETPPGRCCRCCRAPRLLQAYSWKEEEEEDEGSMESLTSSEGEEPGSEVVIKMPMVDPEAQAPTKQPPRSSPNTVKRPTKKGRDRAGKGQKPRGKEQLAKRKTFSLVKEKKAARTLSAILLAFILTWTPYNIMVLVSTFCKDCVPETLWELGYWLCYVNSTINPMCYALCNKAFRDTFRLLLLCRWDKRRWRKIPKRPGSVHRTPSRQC
Sequence of UniProt P35372 (whole entry, looked up): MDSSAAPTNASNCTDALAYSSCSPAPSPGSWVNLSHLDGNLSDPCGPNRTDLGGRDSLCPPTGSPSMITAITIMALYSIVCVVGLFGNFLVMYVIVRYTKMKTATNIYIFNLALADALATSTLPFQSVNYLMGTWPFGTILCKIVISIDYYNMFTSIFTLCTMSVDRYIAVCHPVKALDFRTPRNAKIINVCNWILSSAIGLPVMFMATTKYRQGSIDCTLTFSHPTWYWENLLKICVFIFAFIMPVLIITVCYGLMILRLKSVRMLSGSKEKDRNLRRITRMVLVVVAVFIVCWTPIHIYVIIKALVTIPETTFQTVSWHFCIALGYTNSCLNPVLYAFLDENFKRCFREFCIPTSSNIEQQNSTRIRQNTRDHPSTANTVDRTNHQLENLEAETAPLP
Sequence of UniProt P28223 (whole entry, looked up): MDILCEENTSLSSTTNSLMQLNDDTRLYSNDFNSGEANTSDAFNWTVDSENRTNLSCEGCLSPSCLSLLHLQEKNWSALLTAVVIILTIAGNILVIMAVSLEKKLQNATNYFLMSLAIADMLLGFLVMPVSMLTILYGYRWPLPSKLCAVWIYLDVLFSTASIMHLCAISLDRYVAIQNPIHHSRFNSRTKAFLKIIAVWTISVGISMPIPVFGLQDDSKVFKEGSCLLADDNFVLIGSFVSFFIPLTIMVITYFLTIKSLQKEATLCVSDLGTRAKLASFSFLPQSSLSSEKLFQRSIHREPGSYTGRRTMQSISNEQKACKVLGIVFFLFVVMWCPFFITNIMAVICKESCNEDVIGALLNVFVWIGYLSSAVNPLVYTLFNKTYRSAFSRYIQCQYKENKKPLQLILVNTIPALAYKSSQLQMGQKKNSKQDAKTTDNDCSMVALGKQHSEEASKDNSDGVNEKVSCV
Sequence of UniProt Q96KB5 (whole entry, looked up): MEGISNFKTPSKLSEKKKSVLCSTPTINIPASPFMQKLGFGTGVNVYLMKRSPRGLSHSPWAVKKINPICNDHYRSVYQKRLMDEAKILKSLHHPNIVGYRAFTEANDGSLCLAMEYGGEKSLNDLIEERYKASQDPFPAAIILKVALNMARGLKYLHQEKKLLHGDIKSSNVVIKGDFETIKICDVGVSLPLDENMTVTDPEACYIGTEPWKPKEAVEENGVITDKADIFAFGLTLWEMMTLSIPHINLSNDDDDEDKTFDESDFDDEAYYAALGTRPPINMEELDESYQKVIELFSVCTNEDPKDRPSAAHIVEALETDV
Sequence of UniProt P21918 (whole entry, looked up): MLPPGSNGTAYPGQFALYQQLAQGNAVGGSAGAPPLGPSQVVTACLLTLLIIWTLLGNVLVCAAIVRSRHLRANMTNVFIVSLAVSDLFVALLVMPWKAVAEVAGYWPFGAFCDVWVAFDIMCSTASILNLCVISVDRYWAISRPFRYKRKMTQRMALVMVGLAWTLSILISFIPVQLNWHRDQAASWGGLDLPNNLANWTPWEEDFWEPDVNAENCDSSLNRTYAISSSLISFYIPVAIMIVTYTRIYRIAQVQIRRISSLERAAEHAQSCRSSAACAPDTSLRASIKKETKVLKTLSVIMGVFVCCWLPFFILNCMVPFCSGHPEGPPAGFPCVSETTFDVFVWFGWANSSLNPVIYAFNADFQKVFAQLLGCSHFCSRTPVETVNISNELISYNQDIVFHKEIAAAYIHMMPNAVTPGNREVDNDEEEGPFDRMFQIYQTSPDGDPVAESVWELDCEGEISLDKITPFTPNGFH
Sequence of UniProt P20309 (whole entry, looked up): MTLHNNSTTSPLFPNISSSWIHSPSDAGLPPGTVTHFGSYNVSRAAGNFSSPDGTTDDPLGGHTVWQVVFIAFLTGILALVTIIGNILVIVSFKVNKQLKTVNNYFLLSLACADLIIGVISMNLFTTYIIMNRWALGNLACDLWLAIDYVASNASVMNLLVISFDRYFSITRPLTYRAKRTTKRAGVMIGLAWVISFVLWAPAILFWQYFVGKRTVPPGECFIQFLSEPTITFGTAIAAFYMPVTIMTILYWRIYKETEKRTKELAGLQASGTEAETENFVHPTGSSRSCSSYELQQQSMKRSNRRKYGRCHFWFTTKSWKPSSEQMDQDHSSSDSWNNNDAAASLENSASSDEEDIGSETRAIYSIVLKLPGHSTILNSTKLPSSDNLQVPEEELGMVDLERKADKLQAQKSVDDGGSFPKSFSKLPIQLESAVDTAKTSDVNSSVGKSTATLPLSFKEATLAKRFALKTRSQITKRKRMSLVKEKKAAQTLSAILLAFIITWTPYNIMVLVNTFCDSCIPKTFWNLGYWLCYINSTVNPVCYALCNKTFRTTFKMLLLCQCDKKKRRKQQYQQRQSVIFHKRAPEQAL

Set 1
SMILES: CCCCC[C@@H](O)CC(=O)N[C@H]1COC(=O)[C@H](CO)NC(=O)CNC(=O)[C@H]([C@@H](C)O)NC(=O)[C@H](Cc2ccccc2)NC(=O)[C@@H](Cc2c[nH]c3ccccc23)NC(=O)[C@@H]([C@H](C)O)NC(=O)[C@H](CC(N)=O)NC(=O)[C@@H]([C@H](C)O)NC(=O)[C@H](CC(C)C)NC(=O)[C@@H](Cc2c[nH]c3ccccc23)N(C)C(=O)CNC(=O)[C@H](CO)NC(=O)[C@@H](CO)NC1=O
Organism: Staphylococcus aureus
Strain: USA300
Tested at: 2 x MIC
For 15 min: viable cells read 5400 CFU/mL and 5000 CFU/mL and 4400 CFU/mL.
The viable cells was 600 CFU/mL and 700 CFU/mL and 500 CFU/mL (120 min).
The viable cells was 300 CFU/mL and 500 CFU/mL (240 min).
For 60 min: viable cells read 1000 CFU/mL and 700 CFU/mL and 600 CFU/mL.

Set 2
SMILES: Cc1c(C(=O)O)cc(-c2ccc(C3CCNCC3)cc2)c2ccc(-c3ccc(C(F)(F)F)cc3)cc12
Effect on: cell-free assay
Tested at: 10 µM
It gave 23.4% for inhibition (HTR2A (Homo sapiens, UniProt P28223)).
The inhibition was 58.1% (DRD5 (Homo sapiens, UniProt P21918)).
CHRM1 (Homo sapiens, UniProt P11229) — inhibition: 7.22%.
For OPRD1 (Homo sapiens, UniProt P41143): inhibition read 32%.
It gave 12.6% for inhibition (OPRM1 (Homo sapiens, UniProt P35372)).
The inhibition was 27.9% (OPRK1 (Homo sapiens, UniProt P41145)).
The inhibition was 0.06% (CHRM3 (Homo sapiens, UniProt P20309)).

Set 3
Structure (SMILES): CN[C@@H]1C[C@H]2O[C@@](C)([C@@H]1OC)n1c3ccccc3c3c4c(c5c6ccccc6n2c5c31)C(=O)NC4
Effect on: enzyme activity
Action: inhibitor
Tested at: 0.5 µM
Reference: control
For NEK7 (Homo sapiens, UniProt Q8TDX7): remaining activity read 95.8% and 101%.
It gave 88.3% and 102% for remaining activity (MAPK8 (Homo sapiens, UniProt P45983)).
It gave 27.8% for remaining activity (PBK (Homo sapiens, UniProt Q96KB5)).
The remaining activity was 91.4% and 103% (CSNK1G1 (Homo sapiens, UniProt Q9HCP0)).

Single results of other studies
Target: His6 tag
Method: AlphaScreen counter screen
Tested at: concentration not given
`O=C1NC(=O)c2c1c1c3ccccc3n3c1c1c2c2ccccc2n1[C@@H]1CCC3O1` gave an inhibition of -25.1%.
`CCCCN1C(=O)NC(=O)C(=C(C)Nc2cccc(C(=O)O)c2)C1=O` has an inhibition of -5.9%.

Some of these lines once more (set 1):
The viable cells was 300 CFU/mL and 500 CFU/mL (240 min).
The viable cells was 600 CFU/mL and 700 CFU/mL and 500 CFU/mL (120 min).
